Published values from different studies.
Compare with care: the assays were run in different laboratories. ± gives the spread as reported.
Chymotrypsin-C S216A: Chymotrypsin-C (Homo sapiens, UniProt Q99895, S216A)
Chain of UniProt Q99895 (whole entry, unmodified, looked up): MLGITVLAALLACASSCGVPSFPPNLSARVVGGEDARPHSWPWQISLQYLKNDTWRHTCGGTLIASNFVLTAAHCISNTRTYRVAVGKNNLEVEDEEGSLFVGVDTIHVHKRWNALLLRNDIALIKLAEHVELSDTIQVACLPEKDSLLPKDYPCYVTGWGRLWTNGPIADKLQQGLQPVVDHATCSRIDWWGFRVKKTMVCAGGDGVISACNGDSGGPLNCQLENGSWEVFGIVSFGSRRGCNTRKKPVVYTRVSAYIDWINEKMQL
Magi2: Membrane-associated guanylate kinase, WW and PDZ domain-containing protein 2 (Magi2, Mus musculus, UniProt Q9WVQ1)
Chain of UniProt Q9WVQ1 (whole entry, looked up): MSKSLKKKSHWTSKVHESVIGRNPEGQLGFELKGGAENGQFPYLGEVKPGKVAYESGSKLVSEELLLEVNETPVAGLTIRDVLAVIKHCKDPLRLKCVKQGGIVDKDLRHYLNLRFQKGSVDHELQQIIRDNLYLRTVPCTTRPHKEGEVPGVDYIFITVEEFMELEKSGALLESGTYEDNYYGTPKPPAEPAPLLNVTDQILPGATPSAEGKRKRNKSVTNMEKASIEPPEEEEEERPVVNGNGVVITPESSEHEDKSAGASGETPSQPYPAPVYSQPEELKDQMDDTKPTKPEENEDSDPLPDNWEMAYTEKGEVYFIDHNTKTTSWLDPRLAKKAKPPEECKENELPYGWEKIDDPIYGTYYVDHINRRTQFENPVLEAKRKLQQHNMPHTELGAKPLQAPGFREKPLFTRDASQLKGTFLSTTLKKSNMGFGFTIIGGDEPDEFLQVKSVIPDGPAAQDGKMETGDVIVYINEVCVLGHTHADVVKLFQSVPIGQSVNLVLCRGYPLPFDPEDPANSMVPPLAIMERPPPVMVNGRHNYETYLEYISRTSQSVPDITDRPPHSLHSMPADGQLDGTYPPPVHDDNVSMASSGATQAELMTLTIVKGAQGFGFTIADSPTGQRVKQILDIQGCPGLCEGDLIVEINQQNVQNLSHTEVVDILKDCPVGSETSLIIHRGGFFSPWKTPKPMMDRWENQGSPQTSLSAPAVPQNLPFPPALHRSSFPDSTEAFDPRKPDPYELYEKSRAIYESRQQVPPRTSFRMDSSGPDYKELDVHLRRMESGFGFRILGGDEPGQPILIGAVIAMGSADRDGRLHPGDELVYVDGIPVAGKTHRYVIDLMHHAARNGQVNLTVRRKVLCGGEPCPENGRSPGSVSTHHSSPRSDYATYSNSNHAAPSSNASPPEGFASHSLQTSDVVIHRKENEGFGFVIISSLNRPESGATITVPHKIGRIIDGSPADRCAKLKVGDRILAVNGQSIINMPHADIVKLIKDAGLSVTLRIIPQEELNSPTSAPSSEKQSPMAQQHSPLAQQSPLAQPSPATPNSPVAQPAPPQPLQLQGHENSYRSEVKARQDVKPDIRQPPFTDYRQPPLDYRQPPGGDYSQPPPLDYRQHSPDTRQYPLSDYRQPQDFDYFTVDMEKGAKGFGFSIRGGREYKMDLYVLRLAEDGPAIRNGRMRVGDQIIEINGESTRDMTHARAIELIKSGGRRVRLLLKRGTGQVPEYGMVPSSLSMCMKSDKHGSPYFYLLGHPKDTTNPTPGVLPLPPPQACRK
Chain of UniProt Q07820 (whole entry, looked up): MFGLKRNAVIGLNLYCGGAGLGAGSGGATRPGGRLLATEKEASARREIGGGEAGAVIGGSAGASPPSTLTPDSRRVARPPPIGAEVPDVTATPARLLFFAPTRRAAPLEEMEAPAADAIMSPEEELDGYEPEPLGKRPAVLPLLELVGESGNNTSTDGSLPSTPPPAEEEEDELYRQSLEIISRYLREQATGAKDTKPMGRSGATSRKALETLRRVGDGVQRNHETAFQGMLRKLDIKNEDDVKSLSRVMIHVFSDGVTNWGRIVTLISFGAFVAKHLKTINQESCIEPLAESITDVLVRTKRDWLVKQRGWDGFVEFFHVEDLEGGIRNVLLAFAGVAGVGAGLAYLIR
Chain of UniProt P0ADV1 (whole entry, looked up): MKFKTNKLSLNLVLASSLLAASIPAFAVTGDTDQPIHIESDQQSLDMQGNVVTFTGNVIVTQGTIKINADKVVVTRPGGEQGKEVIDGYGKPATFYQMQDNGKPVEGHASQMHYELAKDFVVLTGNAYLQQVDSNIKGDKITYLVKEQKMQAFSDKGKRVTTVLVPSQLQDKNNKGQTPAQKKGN
Chain of UniProt Q12884 (whole entry, looked up): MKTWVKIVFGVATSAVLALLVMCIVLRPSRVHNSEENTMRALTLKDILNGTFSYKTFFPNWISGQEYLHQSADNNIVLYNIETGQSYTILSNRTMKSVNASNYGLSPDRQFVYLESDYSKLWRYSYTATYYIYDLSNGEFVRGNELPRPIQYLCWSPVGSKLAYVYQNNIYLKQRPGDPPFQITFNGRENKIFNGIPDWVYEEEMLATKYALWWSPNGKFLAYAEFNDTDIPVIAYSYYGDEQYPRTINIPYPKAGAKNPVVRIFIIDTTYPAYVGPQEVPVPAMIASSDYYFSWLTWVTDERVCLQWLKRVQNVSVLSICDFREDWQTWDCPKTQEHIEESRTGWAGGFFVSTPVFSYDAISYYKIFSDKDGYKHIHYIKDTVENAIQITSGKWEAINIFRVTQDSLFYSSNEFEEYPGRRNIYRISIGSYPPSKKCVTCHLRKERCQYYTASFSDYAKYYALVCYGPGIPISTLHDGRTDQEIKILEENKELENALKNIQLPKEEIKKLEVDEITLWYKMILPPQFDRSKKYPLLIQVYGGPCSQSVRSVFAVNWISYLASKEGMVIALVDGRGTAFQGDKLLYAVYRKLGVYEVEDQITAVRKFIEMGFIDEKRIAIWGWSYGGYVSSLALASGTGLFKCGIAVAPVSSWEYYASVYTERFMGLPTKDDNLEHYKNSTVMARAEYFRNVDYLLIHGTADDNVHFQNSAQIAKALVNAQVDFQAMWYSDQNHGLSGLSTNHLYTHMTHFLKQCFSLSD
Chain of UniProt Q92692 (whole entry, looked up): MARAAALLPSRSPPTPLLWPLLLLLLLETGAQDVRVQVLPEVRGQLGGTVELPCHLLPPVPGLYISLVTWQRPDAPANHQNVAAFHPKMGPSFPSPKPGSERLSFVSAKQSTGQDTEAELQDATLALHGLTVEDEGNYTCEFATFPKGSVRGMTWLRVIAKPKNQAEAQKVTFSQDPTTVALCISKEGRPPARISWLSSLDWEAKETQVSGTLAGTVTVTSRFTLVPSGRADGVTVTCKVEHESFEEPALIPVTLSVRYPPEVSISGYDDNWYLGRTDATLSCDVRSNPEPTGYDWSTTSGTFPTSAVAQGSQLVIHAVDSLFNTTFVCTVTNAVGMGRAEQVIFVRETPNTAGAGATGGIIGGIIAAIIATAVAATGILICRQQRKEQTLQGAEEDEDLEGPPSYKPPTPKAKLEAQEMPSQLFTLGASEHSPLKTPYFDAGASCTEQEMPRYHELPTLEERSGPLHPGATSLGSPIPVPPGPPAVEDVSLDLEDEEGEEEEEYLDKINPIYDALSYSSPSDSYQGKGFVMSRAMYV
Chain of UniProt P09619 (whole entry, looked up): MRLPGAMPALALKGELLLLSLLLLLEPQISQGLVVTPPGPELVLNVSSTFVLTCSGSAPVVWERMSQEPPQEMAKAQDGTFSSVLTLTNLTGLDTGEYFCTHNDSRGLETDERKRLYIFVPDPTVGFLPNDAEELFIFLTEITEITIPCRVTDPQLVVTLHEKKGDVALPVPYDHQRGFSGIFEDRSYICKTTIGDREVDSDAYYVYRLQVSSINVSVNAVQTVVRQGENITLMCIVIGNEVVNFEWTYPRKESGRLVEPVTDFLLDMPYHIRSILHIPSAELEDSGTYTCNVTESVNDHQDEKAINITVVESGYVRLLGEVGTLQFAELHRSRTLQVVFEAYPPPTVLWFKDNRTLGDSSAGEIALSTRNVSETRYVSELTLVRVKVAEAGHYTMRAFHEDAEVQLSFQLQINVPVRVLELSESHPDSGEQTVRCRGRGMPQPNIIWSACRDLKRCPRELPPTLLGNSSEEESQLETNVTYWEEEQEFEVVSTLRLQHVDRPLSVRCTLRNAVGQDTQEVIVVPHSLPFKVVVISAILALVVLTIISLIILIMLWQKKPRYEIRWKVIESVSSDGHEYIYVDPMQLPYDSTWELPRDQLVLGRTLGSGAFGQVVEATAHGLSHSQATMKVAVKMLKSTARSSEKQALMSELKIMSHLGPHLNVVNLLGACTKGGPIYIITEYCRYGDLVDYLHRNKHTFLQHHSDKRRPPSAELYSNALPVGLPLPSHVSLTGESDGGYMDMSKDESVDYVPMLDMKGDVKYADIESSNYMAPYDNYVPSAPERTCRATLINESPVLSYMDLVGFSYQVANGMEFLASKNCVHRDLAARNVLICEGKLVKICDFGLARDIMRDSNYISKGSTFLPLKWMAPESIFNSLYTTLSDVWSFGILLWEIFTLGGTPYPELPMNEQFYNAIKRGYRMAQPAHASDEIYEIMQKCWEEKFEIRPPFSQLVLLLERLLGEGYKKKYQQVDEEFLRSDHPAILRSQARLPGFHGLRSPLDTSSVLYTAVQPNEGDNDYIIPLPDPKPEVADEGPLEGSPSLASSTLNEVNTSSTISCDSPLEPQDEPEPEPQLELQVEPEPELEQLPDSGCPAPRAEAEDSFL
Chain of UniProt P62258 (whole entry, looked up): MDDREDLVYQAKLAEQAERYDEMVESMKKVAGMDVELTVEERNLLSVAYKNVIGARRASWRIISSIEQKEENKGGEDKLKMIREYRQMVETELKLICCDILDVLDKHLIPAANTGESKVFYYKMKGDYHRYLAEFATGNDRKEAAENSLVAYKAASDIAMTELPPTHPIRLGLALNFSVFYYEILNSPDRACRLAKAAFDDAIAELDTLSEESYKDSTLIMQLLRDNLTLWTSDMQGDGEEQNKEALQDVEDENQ

Compound | target | test | test system | setting | Kd
CC(=O)N[C@@H](CCCNC(=N)N)C(=O)N[C@H](C(=O)N[C@@H](CCCCN)C(=O)N[C@@H](CO)C(=O)N[C@@H](CCCNC(=N)N)C(=O)N[C@H](C(=O)N[C@@H](Cc1c[nH]c2ccccc12)C(=O)N[C@@H](C)C(=O)N[C@@H](C)C(N)=O)[C@@H](C)OP(=O)(O)O)[C@@H](C)O | 14-3-3 protein epsilon (Homo sapiens, UniProt P62258) | binding, SPR |  | pH 7.4 | 75.4 nM
C=CC[C@H]1OC(=O)CCNC(=O)[C@H](C)N(C)C(=O)[C@H]([C@@H](C)CC)N(C)C(=O)[C@H]([C@@H](C)CC)NC(=O)[C@@H]2[C@@H](C)CCN2C1=O | Platelet-derived growth factor receptor beta, extracellular domain (PDGFRB, Homo sapiens, UniProt P09619) | SPR |  | 30 °C, extracellular domain immobilised | 8610 nM
CC[C@H](C)[C@H](NC(=O)[C@H](CO)NC(=O)[C@H](CO)NC(=O)[C@H](CCC(=O)O)NC(=O)[C@H](CCC(=O)O)NC(=O)[C@H](CCCCN)NC(=O)[C@H](CO)NC(=O)[C@@H](NC(=O)[C@H](CO)NC(=O)[C@H](CC(C)C)NC(=O)[C@H](Cc1ccccc1)NC(=O)[C@H](CCCNC(=N)N)NC(=O)[C@H](C)NC(=O)[C@H](Cc1ccccc1)NC(=O)[C@H](Cc1ccccc1)NC(=O)[C@@H]1CCCN1C(=O)[C@H](CC(C)C)NC(=O)[C@H](C)NC(=O)[C@H](CCCCN)NC(=O)CNC(=O)[C@H](CCC(N)=O)NC(=O)[C@H](CCC(N)=O)NC(=O)[C@H](CC(=O)O)NC(=O)[C@H](CC(N)=O)NC(=O)[C@@H]1CCCN1C(=O)[C@H](Cc1ccc(O)cc1)NC(=O)[C@H](C)NC(=O)[C@@H](N)CCSC)C(C)C)C(=O)N[C@@H](CCCCN)C(=O)N[C@@H](CO)C(=O)N1CCC[C@H]1C(=O)N[C@@H](CO)C(=O)N1CCC[C@H]1C(=O)N[C@@H](CC(=O)O)C(=O)N[C@@H](Cc1c[nH]cn1)C(=O)N[C@@H](CCC(=O)O)C(=O)N[C@H](C(=O)N[C@@H](CO)C(=O)N[C@H](C(=O)N[C@@H](CCCNC(=N)N)C(=O)N[C@@H](CCCCN)C(=O)N[C@@H](Cc1ccc(O)cc1)C(=O)N1CCC[C@H]1C(=O)N[C@@H](CO)C(=O)N[C@@H](CC(=O)O)C(=O)N[C@@H](Cc1c[nH]c2ccccc12)C(=O)N[C@@H](CCC(=O)O)C(=O)N[C@@H](CCC(=O)O)C(=O)N[C@@H](Cc1c[nH]c2ccccc12)C(=O)O)[C@@H](C)O)[C@@H](C)CC | uncharacterized protein (Microcystis aeruginosa MRC, UniProt B2G3D0, E294A/N296A) |  |  |  | 575 ± 302 nM
CC(C)C[C@@H]1NC(=O)[C@H](CC(C)C)NC(=O)[C@H](CC(C)C)NC(=O)[C@H](Cc2c[nH]c3ccccc23)NC(=O)[C@@H]2CSSC[C@@H]3NC(=O)[C@H]([C@@H](C)O)NC(=O)[C@H](CC(N)=O)NC(=O)[C@H](CSSC[C@@H](C(=O)N[C@@H](CC(=O)O)C(=O)N[C@@H](CCC(N)=O)C(=O)O)NC1=O)NC(=O)[C@H](CCCCN)NC(=O)[C@H](CC(=O)O)NC(=O)[C@H](CCCCN)NC(=O)[C@H](Cc1ccccc1)NC(=O)[C@H]([C@@H](C)O)NC(=O)[C@H]([C@@H](C)O)NC(=O)CNC(=O)[C@@H]1CCCN1C(=O)[C@H](CCC(=O)O)NC(=O)[C@@H](NC(=O)[C@@H](NC(=O)[C@@H](NC(=O)[C@H](CCC(=O)O)NC(=O)[C@H](CO)NC(=O)CN)C(C)C)[C@@H](C)O)CSSC[C@H](NC(=O)[C@H](CCCNC(=N)N)NC3=O)C(=O)NCC(=O)N[C@@H](CO)C(=O)N[C@@H](CC(=O)O)C(=O)NCC(=O)N[C@@H](CCCCN)C(=O)N[C@@H](CO)C(=O)N[C@@H](C)C(=O)N[C@@H](Cc1c[nH]c3ccccc13)C(=O)N2 | Chymotrypsin-C S216A | competitive fluorescence polarization |  | 24 h, pH 8.0, added: FITC-labelled tracer | 24 ± 3.34 nM
CC[C@H](C)[C@H](NC(=O)[C@H](CCCNC(=N)N)NC(=O)[C@H](CCCNC(=N)N)NC(=O)[C@H](CC(C)C)NC(=O)[C@H](CCC(=O)O)NC(=O)[C@H](CCC(N)=O)NC(=O)[C@H](C)NC(=O)[C@@H](NC(=O)[C@H](CNC(=O)CCl)NC(=O)[C@H](CCCNC(=N)N)NC(=O)[C@H](CCCNC(=N)N)NC(=O)[C@@H]1CCCN1C(=O)[C@H](CCCNC(=N)N)NC(=O)[C@H](CCCNC(=N)N)NC(=O)[C@@H]1CCCN1C(=O)[C@H](CCCNC(=N)N)NC(=O)[C@H](CCCNC(=N)N)NC(=O)[C@@H]1CCCN1C(=O)[C@H](CCCNC(=N)N)NC(=O)[C@H](CCCNC(=N)N)NC(=O)[C@@H]1CCCN1C(=O)[C@H](CCCNC(=N)N)NC(=O)[C@H](CCCNC(=N)N)NC(=O)[C@@H]1CCCN1C(C)=O)[C@@H](C)CC)C(=O)NCC(=O)N[C@@H](CC(=O)O)C(=O)N[C@@H](CCC(=O)O)C(=O)N[C@@H](Cc1ccccc1)C(=O)N[C@@H](CC(N)=O)C(=O)N[C@@H](C)C(=O)N[C@@H](Cc1ccc(O)cc1)C(=O)N[C@@H](Cc1ccc(O)cc1)C(=O)N[C@@H](C)C(=O)N[C@@H](CCCNC(=N)N)C(=O)N[C@@H](CCCNC(=N)N)C(N)=O | MCL1 (Homo sapiens, UniProt Q07820) | binding, ITC |  |  | 11.6 nM
CC[C@H](C)[C@@H]1NC(=O)[C@@H]2CCCN2C(=O)[C@H](Cc2c[nH]c3ccccc23)NC(=O)[C@H](CO)NC(=O)[C@H](Cc2c[nH]c3ccccc23)NC(=O)[C@H](CC(N)=O)NC(=O)[C@H](CCCCN)NC(=O)[C@H](CCSC)NC(=O)[C@@H]2CSCCC(=O)N3CN(CN(C3)C(=O)CCSC[C@H](NC(=O)[C@H](C)N)C(=O)N3CCC[C@H]3C(=O)N[C@@H](Cc3ccccc3)C(=O)NCC(=O)N2)C(=O)CCSC[C@@H](C(=O)N[C@H](C(=O)N[C@@H](CC(N)=O)C(=O)N[C@@H](CCCCN)C(=O)N(C)CC(=O)N(C)CC(=O)N(C)CC(=O)N(C)CC(=O)N(C)CC(=O)N(C)CC(=O)N[C@@H](CCCCNC(=O)c2ccc(C(=O)O)c(-c3c4ccc(=O)cc-4oc4cc(O)ccc34)c2)C(N)=O)[C@@H](C)O)NC(=O)[C@H](Cc2c[nH]c3ccccc23)NC1=O | Nectin-2 (NECTIN2, Homo sapiens, UniProt Q92692) | fluorescence polarization |  |  | > 2000 nM
CC(C)C[C@@H]1NC(=O)[C@H](CC(C)C)NC(=O)[C@H](CC(C)C)NC(=O)[C@H]([C@@H](C)O)NC(=O)[C@@H]2CSSC[C@@H]3NC(=O)[C@H]([C@@H](C)O)NC(=O)[C@H](CC(N)=O)NC(=O)[C@H](CSSC[C@@H](C(=O)N[C@H](C(=O)N[C@@H](CCC(N)=O)C(=O)O)C(C)C)NC1=O)NC(=O)[C@H](CCCCN)NC(=O)[C@H](CC(=O)O)NC(=O)[C@H](CCCCN)NC(=O)[C@H](Cc1ccccc1)NC(=O)[C@H]([C@@H](C)O)NC(=O)[C@H]([C@@H](C)O)NC(=O)CNC(=O)[C@@H]1CCCN1C(=O)[C@H](CCC(=O)O)NC(=O)[C@@H](NC(=O)[C@@H](NC(=O)[C@@H](NC(=O)[C@H](CCC(=O)O)NC(=O)[C@H](CO)NC(=O)CN)C(C)C)[C@@H](C)O)CSSC[C@H](NC(=O)[C@H](CCCNC(=N)N)NC3=O)C(=O)NCC(=O)N[C@@H](CO)C(=O)N[C@@H](CC(=O)O)C(=O)NCC(=O)N[C@@H](CCCCN)C(=O)N[C@@H](CO)C(=O)N[C@@H](C)C(=O)N[C@@H](Cc1c[nH]c3ccccc13)C(=O)N2 | Chymotrypsin-C (Homo sapiens, UniProt Q99895) | cell-free assay, FP |  | pH 8 | 5.15 nM
O=C(N[C@@H]1c2ccccc2C[C@H]1N1CCCC1)c1ccc(-c2ccnc3[nH]ccc23)nc1 | PRKCE (Homo sapiens, UniProt Q02156) | binding, competition with immobilised ligand |  |  | 200 nM
CC(C)C[C@H](NC(=O)[C@H](CO)NC(=O)[C@@H]1CCCN1C(=O)[C@H](CCC(N)=O)NC(=O)[C@@H](NC(=O)[C@H](C)NC(=O)[C@H](Cc1ccc(O)cc1)NC(=O)[C@H](CC(C)C)NC(=O)[C@H](Cc1ccc(O)cc1)NC(=O)[C@H](COP(=O)(O)O)NC(=O)[C@H](CCC(=O)O)NC(=O)[C@H](CCCNC(=N)N)NC(=O)[C@H](CCCNC(=N)N)NC(=O)[C@H](C)NC(=O)[C@H](C)N)[C@@H](C)O)C(=O)O | Magi2 | ITC |  | pH 8.0, 25 °C, added: tandem peptide | 270 ± 70 nM
CC(=O)NC1C(OC2C(O)C(CO)OC(O)C2OC2OC(C)C(O)C(O)C2O)OC(CO)C(O)C1O (centres unmarked) | Intermedilysin, domain 4 (Streptococcus intermedius, UniProt Q9LCB8) | binding |  |  | 8270 nM
CSCC[C@@H]1NC(=O)[C@H](CC(C)C)NC(=O)[C@H](Cc2c[nH]c3ccccc23)NC(=O)[C@@H]2CSSC[C@@H]3NC(=O)[C@H]([C@@H](C)O)NC(=O)[C@H](CC(N)=O)NC(=O)[C@H](CSSC[C@@H](C(=O)N[C@@H](CC(=O)O)C(=O)N[C@@H](CCC(N)=O)C(=O)O)NC(=O)[C@H](CC(C)C)NC1=O)NC(=O)[C@H](CCCCN)NC(=O)[C@H](CC(=O)O)NC(=O)[C@H](CCCCN)NC(=O)[C@H](Cc1ccccc1)NC(=O)[C@H]([C@@H](C)O)NC(=O)[C@H]([C@@H](C)O)NC(=O)CNC(=O)[C@@H]1CCCN1C(=O)[C@H](CCC(=O)O)NC(=O)[C@@H](NC(=O)[C@@H](NC(=O)[C@@H](NC(=O)[C@H](CCC(=O)O)NC(=O)[C@H](CO)NC(=O)CN)C(C)C)[C@@H](C)O)CSSC[C@H](NC(=O)[C@H](CCCNC(=N)N)NC3=O)C(=O)NCC(=O)N[C@@H](CO)C(=O)N[C@@H](CC(=O)O)C(=O)NCC(=O)N[C@@H](CCCCN)C(=O)N[C@@H](CO)C(=O)N[C@@H](C)C(=O)N[C@@H](C)C(=O)N2 | Chymotrypsin-C S216A | competitive fluorescence polarization |  | 24 h, pH 8.0, added: FITC-labelled tracer | 12.1 ± 2.32 nM
CC[C@H](C)[C@H](NC(=O)[C@@H](NC(=O)[C@@H]1CCCN1C(=O)[C@@H](NC(=O)[C@@H]1CCCN1C(=O)[C@H](CCCCN)NC(=O)[C@H](CCCCN)NC(=O)[C@H](CO)NC(=O)CNC(=O)CCOCCOCCOCCOCc1cn(CCCNC(=O)CCC2=[N+]3C(=Cc4c(C)cc(C)n4[B-]3(F)F)C=C2)nn1)C(C)C)[C@@H](C)CC)C(=O)N[C@@H](Cc1ccc(O)cc1)C(=O)N[C@H]1CSSC[C@@H](C(=O)N[C@@H](CCC(N)=O)C(=O)N[C@@H](CCCNC(=N)N)C(=O)N[C@@H](CCSC)C(=O)O)NC(=O)[C@H](CCCCN)NC(=O)CNC(=O)[C@H]([C@@H](C)O)NC(=O)[C@H](CCCNC(=N)N)NC(=O)[C@H](CCCNC(=N)N)NC(=O)[C@H](CC(N)=O)NC1=O | lptA (Escherichia coli, UniProt P0ADV1) | binding, fluorescence polarization |  | added: lptA titrated | 3.8 ± 1 nM
CC(C)C[C@H](NC(=O)[C@H](CO)NC(=O)[C@@H]1CCCN1C(=O)[C@H](CCC(N)=O)NC(=O)[C@@H](NC(=O)[C@H](C)NC(=O)[C@H](CCCCN)NC(=O)[C@H](CC(C)C)NC(=O)[C@H](Cc1ccc(O)cc1)NC(=O)[C@H](COP(=O)(O)O)NC(=O)[C@@H]1CCCN1C(=O)[C@H](CCCNC(=N)N)NC(=O)[C@H](CCCNC(=N)N)NC(=O)[C@H](C)NC(=O)[C@H](C)N)[C@@H](C)O)C(=O)O | Magi2 | ITC |  | pH 8.0, 25 °C, added: tandem peptide | 70 nM
CC(C)C[C@H](NC(=O)[C@@H]1CCCN1C(=O)[C@H](CCCCN)NC(=O)[C@@H](N)CO)C(=O)N1CCC[C@H]1C(=O)N[C@@H](CCC(=O)O)C(=O)N[C@H](C(=O)N[C@H](C(=O)N[C@@H](CC(=O)O)C(=O)N[C@@H](CCC(=O)O)C(=O)N[C@@H](Cc1ccc(O)cc1)C(=O)NCC(=O)NCCOCCOCCOCCOCCOCCOCCOCCOCCOCCOCCOCCOCCC(=O)N[C@@H](CCCCNC(=O)CC[C@H](C(=O)O)N1CCN(CC(=O)O)CCN(CC(=O)O)CC1)C(=O)N1CCN(CCCN(C)c2ccc3nccc(C(=O)NCC(=O)N4CC(F)(F)C[C@H]4C#N)c3c2)CC1)[C@@H](C)O)C(C)C [copper-64 labelled] | FAP (Homo sapiens, UniProt Q12884) | binding, 64Cu radioligand saturation | HT-1080 expressing hFAP | 1 h, 37 °C, added: FAPI-04 1 µM for nonspecific | 5.11 nM

For quick reference, copied from above:
Compound | target | test | test system | setting | Kd
CC(=O)NC1C(OC2C(O)C(CO)OC(O)C2OC2OC(C)C(O)C(O)C2O)OC(CO)C(O)C1O (centres unmarked) | Intermedilysin, domain 4 (Streptococcus intermedius, UniProt Q9LCB8) | binding |  |  | 8270 nM
